# Experimental data gathered from unrelated publications.
# A part holds a random share of what one study measured. Changes are numbered by the printed parent chain.

# Block 1
# Target: CCNB1, cyclin fold, Cln2 fusion (human)
# Method: yeast growth competition, sequencing
# Medium: yeast
# Notes: strong parent motif
# Reference: not given
# Direction: higher = stronger binding
# Starting sequence: INSM1 docking peptide (human); PKAIRKLHFEDEV; partner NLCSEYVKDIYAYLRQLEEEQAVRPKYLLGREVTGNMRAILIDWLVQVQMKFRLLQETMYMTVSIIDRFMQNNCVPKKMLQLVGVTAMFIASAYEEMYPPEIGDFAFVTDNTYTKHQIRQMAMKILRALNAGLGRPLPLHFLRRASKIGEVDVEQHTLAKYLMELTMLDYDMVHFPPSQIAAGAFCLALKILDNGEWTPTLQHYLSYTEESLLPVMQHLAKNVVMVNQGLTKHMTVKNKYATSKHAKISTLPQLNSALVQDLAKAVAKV
Change,normalised enrichment score
PKAIRKLHFEDSV [E12S],1.48
PKAIRCLHFEDEV [K6C],1.81
PKAIRKLHIEDEV [F9I],-0.125
PKAIRKLHFEDLV [E12L],1.67
PKAIRKLHGEDEV [F9G],0.12
PKARRKLHFEDEV [I4R],2.27
PKAIRKDHFEDEV [L7D],-0.123
PKAIRKLHFHDEV [E10H],1.28

# Block 2
# Target: ABI1, truncated, D143A, DHFR fusion (Arabidopsis thaliana)
# Method: DHFR PCA, deep sequencing
# Medium: yeast
# Notes: methotrexate growth selection, single substitutions
# Added: (+)-ABA 1.4 µM
# Reference: wild-type fitted maximum
# Direction: higher = stronger binding
# Starting sequence: PYL1, truncated, DHFR fusion (Arabidopsis thaliana); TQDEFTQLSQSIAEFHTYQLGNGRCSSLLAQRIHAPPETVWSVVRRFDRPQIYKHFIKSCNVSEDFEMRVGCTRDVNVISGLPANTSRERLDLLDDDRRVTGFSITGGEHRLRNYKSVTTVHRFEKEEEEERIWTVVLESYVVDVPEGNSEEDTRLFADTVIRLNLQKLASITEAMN; partner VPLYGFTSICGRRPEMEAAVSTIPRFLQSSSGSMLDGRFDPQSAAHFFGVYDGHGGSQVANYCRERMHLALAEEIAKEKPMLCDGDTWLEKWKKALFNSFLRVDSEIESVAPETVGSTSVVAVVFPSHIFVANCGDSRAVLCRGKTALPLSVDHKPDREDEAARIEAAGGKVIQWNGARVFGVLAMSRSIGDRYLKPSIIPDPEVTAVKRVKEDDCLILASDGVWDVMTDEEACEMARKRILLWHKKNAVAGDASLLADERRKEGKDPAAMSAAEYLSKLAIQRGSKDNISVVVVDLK
Change,relative binding score [%]
R111N,3.55
F5Q,48.6
T6Y,30
Q167C,31.5
T173A,55.1
T119D,-3.07
F15W,58.5
T73M,59.2
P37M,2.23
E152W,21.4
P37D,7.22
T160I,-4.66
K54C,-6.64

# Block 3
# Target: Centromere-binding protein 1, full length, N-terminal tag (CBF1, Saccharomyces cerevisiae, UniProt P17106, residues 1-351)
# Chain of UniProt P17106 (whole entry, looked up): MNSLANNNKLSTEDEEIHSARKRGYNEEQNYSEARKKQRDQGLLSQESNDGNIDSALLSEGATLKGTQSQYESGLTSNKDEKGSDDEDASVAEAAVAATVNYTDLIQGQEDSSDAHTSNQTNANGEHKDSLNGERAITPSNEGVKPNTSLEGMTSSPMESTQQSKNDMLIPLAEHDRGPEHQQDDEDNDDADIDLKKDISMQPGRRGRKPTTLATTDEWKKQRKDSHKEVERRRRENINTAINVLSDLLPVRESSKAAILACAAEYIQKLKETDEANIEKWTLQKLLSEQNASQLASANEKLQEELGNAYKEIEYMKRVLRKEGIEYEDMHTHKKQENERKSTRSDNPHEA
# Method: protein-binding microarray
# Molecule type: double-stranded DNA, one strand shown
# Medium: in vitro
# Tested at: 0.8 µM
# Notes: whole 60-bp probe, no competitor
# Direction: higher = stronger binding
# Constant ends, left off below: … GTCTTGATTCGCTTGACGCTGCTG
Strand,fluorescence intensity [a.u.]
CTATTAATGATTACGCATGTGGATGTGTTCAGTTTC,550
GAAACTTTTAAAGTTAACATCACCGCTGAATTATAG,496
GAATTTGTTCAAGGTGGCGTTTGCCGTATAAAATAG,538
GAAAATTTATTAGCTCACGTGTATACATGTATATAG,5220
GAATTCATAACCTGTCACCTTGAAACTAAAAAATAG,550
CCTAACTACTATATTCACCTGTTATAGCTTCGTACA,551
CTATCATTGGTTGGTGGTGCGATTTAATGCGTATTC,519
GAACTGCTTTATAATCACGGGAGTATGACAGCATAG,1110
CTATACTCACTTTCGCACATGCGATTACGTGTATTC,562
CTACATAATATTTTCGTCACCATTATCTTGTTGTTC,555
CTACACCCCCCCACACACGTTCCGCCCACTTTTTTC,510
GAAGGTTTTCCCGCTAACGTGTTCTTAAAGGATTAG,672
CCTAACTACTATAGTGACTTCTCATAGCTTCGTACA,518
CTAGTTCATAACTGGCACATGCTTTTCTTCCTTTTC,742
CTATGGTATAATATTCACATGGTGCTCTACCGTTTC,668
GAAGATGCTGATGCTGATGTTGTGCTATATGCTTAG,539
GAAGTCATTGCTGATCACATAAACAAGATTCAATAG,613
GAATTACAACTATAATGCATGACATGATGAATATAG,586
GAACGGTAAAATAATCACCTGAAAAAAACTAGGTAG,709

# Block 4
# Target: RING finger protein unkempt homolog, zinc fingers 1-6, GST-SBP tag (UNK, Homo sapiens, UniProt Q9C0B0, residues 30-357)
# Method: RNA Bind-n-Seq
# Molecule type: RNA
# Medium: in vitro
# Tested at: not given
# Notes: RNA with constant flanks, human-mouse chimeric sites, ends assumed
# Reference: input RNA pool
# Direction: higher = stronger binding
# Constant ends, left off below: GGGAGUUCUACAGUCCGACGAUC … CAACAGAGGAUUGAGCAUCA
# Residues (chain): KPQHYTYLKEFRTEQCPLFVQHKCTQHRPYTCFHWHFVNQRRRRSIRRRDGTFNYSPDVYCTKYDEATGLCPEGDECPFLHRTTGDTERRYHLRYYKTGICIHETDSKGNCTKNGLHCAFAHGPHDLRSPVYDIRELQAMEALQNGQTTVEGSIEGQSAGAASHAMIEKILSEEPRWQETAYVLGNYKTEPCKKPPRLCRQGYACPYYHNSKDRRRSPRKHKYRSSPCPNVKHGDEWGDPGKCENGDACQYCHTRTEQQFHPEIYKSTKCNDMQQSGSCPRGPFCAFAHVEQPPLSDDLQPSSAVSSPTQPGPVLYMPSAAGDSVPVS
Strand,bound/input enrichment
GCCACCAAUUCCAGCCAACAUGACUCUUGCUGCCUACAAAGAGAAGAUGAAGGAGCUCCCGCUGGUGUCCUUGUUCUGCUCCUGCUUCCUGGCCGAUCCCCUGAAUAAGUCGUCCUACAA,0.343 ratio
CUGGCACUGUAUCAGAUAGAUUACUUUUUUAAUGUAGAUGUAAUUUUAAAAAUGAAUGGCUACUUUACACGUUUAACUAGGGUUUUACUAUAUAUGUGUACAUAUGUAUAUAUAUAUAUA,5.34 ratio
CUCAGAGAUGUGGCAUAUCAGUAUGUGAAAAAGGGGUCUCGUAUAUUUGUGGAAGGGAAAAUAGACUAUGGCGAGUACAUGGAUAAAAACAAUGUGAGGCGGCAAGCAACAACAAUCAUA,0.525 ratio
GGAAGUACAAUGAUGGAGAUUGAUGGUGACAAAGGCAAGCAGGGCGGGCCCACCUACUACAUAGAUACCAAUGCCCUCCGCGUGCCCAGGGAGAACAUGGAGGCCAUUUCACCUCUAAAG,0.351 ratio
UGACAAGCACGAGCAUCAGCCAUGCCUUUCCUUGACAUCCAGAAAAGGCUGGGCAUCAGCCUGGACCGGCACUUUAUGUUCCUAAGCGCAGAACAGCCCUAUAAGAACGCCGCUCGGUGC,0.0628 ratio
CGCUGGCCCAAGCUGAUGUAAAUGUUUGGCCUCCAUCUCUCAGGCACGUGUGCCUUCUCUUAGUCCCUGUUUUCGGGUCACAAAGCUUCUCAGUACUGUGGUUUGAAAGCACCAGCUUUG,0.159 ratio
GUAGCUGGCCAUUAGGAAAUGCUGGUAAUUUCAGUCACUUGCUGAUGACUUCUGAUGUCCCAGCAAAUGUUGGCAUUGUUGACUGCUGAGAAGAUACUUCUGAGGACAUACAGCAGUGGU,0.497 ratio

# Other studies, line by line
Molecule,target,assay,test system,setting,how to read,measurement,value
"PhoQ, residues 284 288 289 292 302 303 GLASVI","PhoP, residues 12 14 15 18 19 NYFTV (Escherichia coli, UniProt P23836)","Sort-seq, item: YFP reporter",E. coli,"PhoQ-PhoP variant library, added: 10 µM Mg2+","reference: high Mg2+ state, higher = stronger signaling",fold induction,16

# Some of these lines once more (block 3):
Strand,fluorescence intensity [a.u.]
GAACTGCTTTATAATCACGGGAGTATGACAGCATAG,1110
CTATACTCACTTTCGCACATGCGATTACGTGTATTC,562
GAATTTGTTCAAGGTGGCGTTTGCCGTATAAAATAG,538
CTATTAATGATTACGCATGTGGATGTGTTCAGTTTC,550
GAAAATTTATTAGCTCACGTGTATACATGTATATAG,5220
